Results of several laboratories.
Parts stem from different laboratories: compare values within a part only. Substitutions count along the parent as printed.

Set 1 — target: CCNE2, cyclin fold, Cln2 fusion (human); method: yeast growth competition, sequencing; sample: yeast; setting: weak parent motif; baseline: not given; direction: higher = stronger binding; measurement: normalised enrichment score
Parent: CDC6 docking peptide (human); TLKGRRLVFDNQL
TLKGRRLVPDNQL [F9P]: 1
KLKGRRLVFDNQL [T1K]: 0.468
TLKCRRLVFDNQL [G4C]: 1.05
TLKGRRLVFSNQL [D10S]: 0.405
TLKGRRLVFDNNL [Q12N]: 0.541
TLKGRRLVFDNFL [Q12F]: 0.944
TLKGRRRVFDNQL [L7R]: 0.654
LLKGRRLVFDNQL [T1L]: -0.0421

Set 2 — method: RNA Bind-n-Seq; form: RNA; sample: in vitro; concentration: 365 nM; baseline: no-protein control; direction: higher = stronger binding; measurement: RBNS enrichment (R)
Target: RNA binding protein fox-1 homolog 2, RRM domain, GST-SBP tag (RBFOX2, Homo sapiens, UniProt O43251-10, residues 100-194)
Setting: natural RNA segment, single round, ends assumed
Construct (chain): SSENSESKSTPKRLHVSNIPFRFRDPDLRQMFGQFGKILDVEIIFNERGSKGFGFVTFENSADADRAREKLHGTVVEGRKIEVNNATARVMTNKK
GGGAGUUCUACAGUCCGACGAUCUAUGAGUGGAUCAAACCGGUUCUGUUCUUUCUUGUGUUGCCAUGUUACUAUGCCUCAAGCCCAGUUUGCUUUUGCCGCAGCGAUGGGGCCAGUCUCAUUCCUCCCCAGGAUGGAAUUCUCGGGUGCCAA: 0.239
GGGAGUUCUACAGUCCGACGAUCGACCAGGACGCCUCUGGCCCAGUGCUGCCCAGCCUCCCCGCCCGCUCCCAGGCGCCCCAUGUCCUCACAGGCCAGGACGCCAUGGCAGGAUGGAGAGGACUUGGUGGAUUUGGAAUUCUCGGGUGCCAA: 0.196
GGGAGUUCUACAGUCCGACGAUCCGCUGUGUUCUAGGCCCGCCCACCCCAACCUUCUGGUGGGGAGAAAUAAACGGUUUAGAGACUAGGAGUGCCUCGGGGUUCCUUGGCUUGCGGGAGGAAUUGGUGCAGAGUGGAAUUCUCGGGUGCCAA: 0.841
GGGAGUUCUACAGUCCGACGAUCUUCAGCCCGUGUCUCAUACACUUGAAGAUGUCUAUAUUGAGUUUGAAGAGGUUAUAAAGGGACAGAUGGUCAUAGAAACCUUUGCAGAGGCAGUUGUGCCAACCCAAGGGUGGAAUUCUCGGGUGCCAA: 0.845
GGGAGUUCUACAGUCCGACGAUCACGGCAGAGGCCUCCUGGCCUCAGGGCAUGCCCUGCCUACCUUCUGAAAUGUUUACCCCAUUGACCAAACUUGGCUCCAGCCAUUGCGGUGGUUUCUAGAUAGCCAGGCCUGGAAUUCUCGGGUGCCAA: 0.474
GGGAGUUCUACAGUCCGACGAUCGGGGUACCUGGUCCCCAUUUCCUACUCCUCUUUUAACAAAAGAGAAAAGAAUUCCAAACCACCACCAGCUCUGUAGUCUUGCCUCAUAUAUCCUGGGUGUUGCUGGCUGGUGGAAUUCUCGGGUGCCAA: 0.614

Set 3 — method: RNA Bind-n-Seq; form: RNA; sample: in vitro; concentration: not given; baseline: input RNA pool; direction: higher = stronger binding; measurement: bound/input enrichment
Target: RING finger protein unkempt homolog, zinc fingers 1-6, GST-SBP tag (UNK, Homo sapiens, UniProt Q9C0B0, residues 30-357)
Sequence of UniProt Q9C0B0 (30-357, looked up): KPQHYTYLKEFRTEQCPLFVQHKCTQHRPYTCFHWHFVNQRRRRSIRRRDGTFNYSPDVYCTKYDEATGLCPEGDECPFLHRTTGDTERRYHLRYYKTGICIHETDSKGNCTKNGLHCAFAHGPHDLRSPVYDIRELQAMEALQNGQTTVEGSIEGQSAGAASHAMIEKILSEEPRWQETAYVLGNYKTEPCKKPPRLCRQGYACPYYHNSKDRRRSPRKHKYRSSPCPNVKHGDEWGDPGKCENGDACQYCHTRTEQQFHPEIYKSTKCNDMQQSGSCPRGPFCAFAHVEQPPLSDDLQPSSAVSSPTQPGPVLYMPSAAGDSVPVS
Setting: RNA with constant flanks, human-mouse chimeric sites, ends assumed
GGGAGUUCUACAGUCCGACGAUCGAUCCACAGUGGUCUGAGGAACAGCUGAUUGCUGCAAAAUUCUGUUUUGCUGGCCUUGUUAUAGGGCAGACUGAAGUGGAUAUCAUGAGUCAUGCCACACAAGCUAUUUUUGAAAUUCUGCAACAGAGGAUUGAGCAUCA: 0.323 ratio
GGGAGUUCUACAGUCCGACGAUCUCCCAAAUCCAGCAGCUAGAAGGAGCCUUGAGACAAACACUCCACACACAGGGAAGGCAAUAGCUUUGUACAUUGGUUUACAUUUUUUCCCCCUGUGGAUUUUUCUAUCCUAGUGCUUGCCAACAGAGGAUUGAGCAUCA: 0.389 ratio
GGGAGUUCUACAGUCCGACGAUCGCAAAGGAUGAUGAGGCGGCAGCUGUUGCACUUUCCUCUCUCGUUCAUGCUUUGGAUGAGUUAAACAUGGUCGCCAUCGUCCGAUAUGCUUAUGACAAAAGAUCUAAUCCUCAAGUCGGUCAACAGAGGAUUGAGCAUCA: 0.226 ratio
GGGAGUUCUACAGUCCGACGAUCUACUGCUGCUUUCAACUUAAAUCACUGAGGCAUCUCUACUGUUCUGUUAAAAUCAGGACUGUAGCGCUGUGUCACCACAUGAGAGUUCAGAAGCAGCCUUUCUGUGGAGGGUGGGAAUGACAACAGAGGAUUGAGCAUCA: 0.111 ratio
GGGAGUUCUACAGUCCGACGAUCCAUGUAUCUGCAGUACUUGAUGUGGACUACUCUCCCACUGGGAAGGAAUUUGUGUCUGCCAGCUUUGAUAAGUCUAUUAGAAUCUUUCCUGUGGACAAGAGCCGAAGCAGGGAAGUGUAUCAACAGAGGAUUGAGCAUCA: 0.637 ratio
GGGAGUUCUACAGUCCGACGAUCUCCCAAAUCCAGCAGCUCCUUGAAAUAUUGAGACAAACACUCCACACACAGGGAAGGCAAUAGCUUUGUACAUUGGUUUACAUUUUUUCCCCCUGUGGAUUUUUCUAGAGGUCAUAGUGCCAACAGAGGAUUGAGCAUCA: 0.717 ratio
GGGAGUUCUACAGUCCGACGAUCCUGUGCGGGUGACUGUCCUGGAGUGGCUGGAGUUCCCGCCGGAGCGCGGCCAGACUAAUUUUAGAAAAUGCCAAGUAGGAAGUUUGUUGAGGGUGAAGUGGUAAGAGGCCGAUGGCCUGGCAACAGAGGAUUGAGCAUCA: 2.7 ratio

Mixed results
PhoQ, residues 284 288 289 292 302 303 DDMDFR
fold induction (PhoP, residues 12 14 15 18 19 LWHVM (Escherichia coli, UniProt P23836); Sort-seq, refers to: YFP reporter; E. coli; PhoQ-PhoP variant library, with: 10 µM Mg2+; baseline: high Mg2+ state, higher = stronger signaling): 0.807

Excerpt of the above (mixed results):
PhoQ, residues 284 288 289 292 302 303 DDMDFR
fold induction (PhoP, residues 12 14 15 18 19 LWHVM (Escherichia coli, UniProt P23836); Sort-seq, refers to: YFP reporter; E. coli; PhoQ-PhoP variant library, with: 10 µM Mg2+; baseline: high Mg2+ state, higher = stronger signaling): 0.807
